Published values pooled from the literature.
Lines come from different studies, so protocols differ. Numbers after ± are the reported error.

O=C(CCCN1CCC(O)(c2ccc(Cl)cc2)CC1)c1ccc(F)cc1  QTc interval (male Hartley guinea pig, anaesthetized; intravenous, 0.1 mg/kg, baseline before infusion): 332 ± 0.4 ms
Cc1cc(N2CCc3c(c(C)nn3CC34CCC(NC(=O)[C@@H]5COCCN5)(CC3)CC4)C2)c2cnn(C)c2n1  blood concentration (LC-MS/MS; 129/Sv mice; oral, 15 mg/kg, 3 h): 0.362 ± 0.184 µM
CC(C)(C)c1ccc(O)c(CN(Cc2cc(C(C)(C)C)ccc2O)C2CCC(NC(N)=O)CC2)c1 (centres unmarked)  recovery (human liver microsomes; 5 ng/mL, time not given, freeze-thaw, 3 cycles, -20 °C): 96.8 ± 5.1%
C[C@H]1CN(C(=O)CC#N)[C@]12CCN(c1ncnc3[nH]ccc13)C2  subjects with TEAEs (healthy human; oral, 3 mg single): 25%
CCO[C@H]1CCN(Cc2c(OC)cc(C)c3[nH]ccc23)[C@H](c2ccc(C(=O)O)cc2)C1  total Cmax (human severe hepatic impairment, plasma; oral, 200 mg single dose, geometric mean): 3260 ng/mL
Cl.[2H]C([2H])([2H])CC(=O)c1cnc(NC(=O)C2CC2)cc1Nc1cccc(-c2ncn(C([2H])([2H])[2H])n2)c1OC  elimination rate constant (geometric mean; human; oral, 100 mg single dose, fasted, liquid): 2.36e-05 s⁻¹
CCO[C@H]1CCN(Cc2c(OC)cc(C)c3[nH]ccc23)[C@H](c2ccc(C(=O)O)cc2)C1  incidence of pyrexia (PNH patients, active haemolysis; oral, 100 mg, treatment): 0%
Cc1nc(-c2ccc(OCC(C)C)c(C#N)c2)sc1C(=O)O  geometric mean ratio Cmax (human, plasma; oral, 20 mg, with: verinurad 10 mg; reference: test over reference): 93.7
CC(C)n1c(Nc2cccnc2)nc2cnc(Nc3ccc(N4CCN(C)CC4)cc3)nc21  subjects with adverse event (refers to: investigations (SOC); healthy male subjects; oral, 100 mg, study, with: itraconazole): 21.4%
COc1cccc(OC)c1-c1cc(C(=O)NC2(C(=O)O)C3CC4CC(C3)CC2C4)nn1-c1ccc(C(=O)N(C)CCCN(C)CCCN(C)C(=O)CN2CCN(CC(=O)[O-])CCN(CC(=O)[O-])CCN(CC(=O)[O-])CC2)cc1C(C)C.[177Lu+3] (centres unmarked)  tumour-to-large intestine ratio (mouse HT-29 xenograft; 168 h, biodistribution; reference: tumour over large intestine): 34.4
Cc1cc(Nc2cc3ncccc3c(N[C@@H]3C[C@H]4CC[C@@H](C3)N4CCC#N)n2)n[nH]1  subjects with epistaxis (healthy human; oral, 100 mg single dose, 2 weeks): 0%
CNC(=O)c1ccc(-c2cnc3ncc(Cc4ccc5ncccc5c4)n3n2)cc1F  non-cardiac chest pain incidence (all grades) (CTCAE v4.0, any causality; human hepatocellular carcinoma patients; oral, 600 mg twice daily, expansion cohort at RP2D): 0%
Cc1noc(CC2(NS(=O)(=O)c3cccc(Cl)c3O)CC2)n1  DLS scattered light intensity (colloidal aggregate formation, dynamic light scattering; 50 mM potassium phosphate buffer; 200 µM, pH 7.0, 1% DMSO; higher = more aggregation): 604000 counts/s
CCN1CCN(Cc2ccc(Nc3ncc(F)c(-c4cc(F)c5nc6n(c5c4)[C@H](C)CCC6)n3)nc2)CC1  Tmax (human, plasma; 500 mg multiple dosing, median): 6.05 h
COc1ccc([C@@H](O)c2cc(-c3ncnc4cc(N5CCOCC5)ccc34)c(F)cc2Cl)nn1  AUC(0-12) (human, plasma; oral, 300 mg twice daily, single dose, geometric mean): 9290 ng·h/mL
C[C@@H](Oc1ccc(S(C)(=O)=O)cc1C(=O)N1C[C@@H]2C[C@]2(c2cc(C(F)(F)F)on2)C1)C(F)(F)F  fraction excreted in urine at steady state (young healthy humans, urine; oral, 25 mg once daily, 0 to 24 h, multiple dosing): 4.92%
CCCCc1ccc(C#Cc2ccc(OCC)cc2)cc1  concentration (refers to: compound; human pregnant women, female fetuses, maternal serum; dose not given, paired maternal-cord samples, mean): 0.5 ng/mL
Cc1c(NS(=O)(=O)c2cc(Cl)cc(Cl)c2O)cccc1-n1cn[nH]c1=O  DLS scattered light intensity (colloidal aggregate formation, dynamic light scattering; 50 mM potassium phosphate buffer; 200 µM, pH 7.0, 1% DMSO; higher = more aggregation): 405000 counts/s
Cn1cnc2c(F)c(Nc3ccc(Br)cc3Cl)c(C(=O)NOCCO)cc21  Vmax of absorption (population PK model; human, plasma; oral, nonlinear absorption model, fed): 35100 nmol/h
CC(C)NCC(O)c1ccc(NS(C)(=O)=O)cc1 (racemic)  QTc interval (male Hartley guinea pig, anaesthetized; intravenous infusion, 3 mg/kg, 10 min infusion, post-infusion): 372 ± 0.3 ms
Cc1cc(Nc2ccc(S(F)(F)(F)(F)F)cc2)n2nc(C(C)(F)F)nc2n1  adverse event Chills (Plasmodium vivax malaria patients; oral, 400 mg): 0%
O=C(COc1ccc(Cl)cc1)NC12CC(c3nnc([C@H]4C[C@@H](OC(F)(F)F)C4)o3)(C1)C2  treatment-emergent adverse events (refers to: Epistaxis; healthy humans, both sexes; oral, 45 mg, single ascending dose; reference: subjects): 16.7%
CC(=O)c1cc(C(=O)N[C@@H](C)Cn2ccc(-c3ccc(C#N)c(Cl)c3)n2)[nH]n1  AUC(0-tlast) (healthy male human, plasma; intravenous infusion, 100 µg 14C-labelled, 15 min infusion, microtracer, geometric mean): 19800 h·pg eq/mL
c1ccc(-c2nc(N3CCC(c4ccccn4)C3)c3ccccc3n2)nc1 (centres unmarked)  blood concentration (female Balb/c mice, blood; intravenous, 2 mg/kg, 8 h, mean, with: 1-aminobenzotriazole co-dosed): 153 ng/mL
Cn1ncc(S(=O)(=O)NCc2ccc(S(=O)(=O)N3CCOCC3)cc2)c1C(=O)O  DLS scattered light intensity (colloidal aggregate formation, dynamic light scattering; 50 mM potassium phosphate buffer; 200 µM, pH 7.0, 1% DMSO; higher = more aggregation): 759000 counts/s
Cn1cc(Nc2nccc(-c3ccc4c(c3)CN(C3COC3)CC[C@H]4NC(=O)c3cn(C(C)(C)C)nn3)n2)cn1  plasma cell count change (human, whole blood; 50 mg twice daily, day 14; reference: pre-dose baseline): 0.16%
CCOc1c([C@H](C)n2nc(C)c3c(N)ncnc32)cc(Cl)c(F)c1[C@@H]1CNC(=O)C1  observations ΔQTcF >30 ≤60 ms (ECG; previously treated B-cell malignancy patients; oral, 5 mg once daily, baseline QTcF ≤450 ms): 40%
O=C(O)CCC(=O)O.[2H]C([2H])([2H])Oc1cc(C)c2[nH]ccc2c1CN1CC[C@@H](C2CC2)C[C@H]1c1ccc(C(=O)O)cc1  subjects with muscle pain TEAE (multiple ascending dose; healthy Chinese subjects; 200 mg once daily): 12.5%
C/C(O)=C(\C#N)C(=O)Nc1ccc(C(F)(F)F)cc1  blood concentration (CD-1 mice female, whole blood; oral, 10 mg/kg leflunomide daily, 8 h, after dose 10): 129 ± 36.6 µM
COc1ccc2nc(NC(=O)c3cc(=O)c4ccccc4o3)sc2c1  HC50 (haemolysis; sheep erythrocytes; 1 h, pH 7.5): > 64 µg/mL
CC(=O)Nc1c(C)cc(NS(=O)(=O)c2cc(Cl)cc(Cl)c2O)cc1C  DLS scattered light intensity (colloidal aggregate formation, dynamic light scattering; 50 mM potassium phosphate buffer; 200 µM, pH 7.0, 1% DMSO; higher = more aggregation): 531000 counts/s
COc1ncc(-c2nc3c(n2C(C)C)[C@H](c2ccc(Cl)cc2)N(c2cc(Cl)cn(C)c2=O)C3=O)c(OC)n1  AUC(0-t) geometric mean (human patients, plasma; oral, 400 mg, high-dose arm, cycle 1 day 1): 81700 ng·h/mL
C[C@@H]1CS/C(=N\NC(=O)C(=O)[C@@H](NC(=O)C2CCCCCC2)C2CCOCC2)N1C  discontinuation due to adverse events (healthy postmenopausal women; dose not given; reference: subjects): 2%
Cc1nc(-c2ccc(OCC(C)C)c(C#N)c2)sc1C(=O)O  subjects with AEs leading to withdrawal (healthy Chinese subjects; oral, 40 mg, fed, single dose): 0%
CC(C)(C(=O)N1CCOc2c(C#N)cncc2C1)C(F)F  subjects with adverse event (refers to: nervous system disorders; human; oral, 10 mg once daily, 14 days, multiple ascending dose): 25%
CC(C)c1nc(N(C)S(C)(=O)=O)nc(-c2ccc(F)cc2)c1/C=C/[C@@H](O)C[C@@H](O)CC(=O)O  subjects with adverse event (refers to: respiratory, thoracic, mediastinal disorders; healthy men; oral, dose not given, 8 days, treatment-emergent, crossover trial): 0%
CCc1cc(C(=O)NC)c2nccc(N3CCc4c(cc(Cn5ccnc5)cc4-c4cn(C)nc4C(F)(F)F)C3=O)c2c1  kidney weight (Sprague Dawley rat; oral, 100 mg/kg twice daily, 7 days): 2.4 ± 0.202 g
O=S(=O)(Nc1c(Cl)ccc2c1OCO2)c1cc(Cl)cc(Cl)c1O  DLS scattered light intensity (colloidal aggregate formation, dynamic light scattering; 50 mM potassium phosphate buffer; 200 µM, pH 7.0, 1% DMSO; higher = more aggregation): 1.32e+07 counts/s
CCCOc1ccc(NC(=O)CN2CCN(C)CC2)cc1-c1nc(CC)c(CC)c(=O)[nH]1  drowsiness incidence (healthy Chinese men; 10 mg, with: alcohol 0.5 g/kg): 20%
C[C@@H](O)[C@H]1C(=O)N2C(C(=O)O)=C(S[C@@H]3CN[C@H](C(=O)N(C)C)C3)[C@H](C)[C@H]12  deviation from nominal concentration (human whole blood; concentration not given, 48 h, 4 °C): -5.1%
CC[C@H](C)[C@@H]1NC(=O)[C@@](C)(NC(=O)[C@H](CCCNC(=N)N)NC(=O)[C@H](CC(C)C)NC(=O)[C@@H](NC(=O)[C@H](CCC(N)=O)NC(=O)[C@H](CC(C)C)NC(C)=O)[C@@H](C)O)CCCC=CCCC[C@@](C)(C(=O)N[C@@H](CC(C)C)C(=O)N[C@@H](Cc2ccc3ccccc3c2)C(N)=O)NC(=O)[C@H](CCCNC(=N)N)NC(=O)[C@H](CCC(N)=O)NC1=O  Vss (BALB/c mouse; intravenous, 5 mg/kg): 0.0693 L/kg
CCNCCCNC/C=C\CNCCCNCC  volume of distribution (LC-MS/MS; cancer patients, plasma; intravenous infusion, 100 mg, 60 min infusion, median, cycle 1): 5.22 L/kg
COc1ccnc(C(=O)NC(CO)C(=O)O)c1O (racemic)  DT50 (aerobic dark soil incubation; clay soil; 20 °C, persistence endpoint): 1.8 days
COc1ccc2cc(CNC(=O)C3(C(=O)O)CC=CC3)ccc2c1  DLS scattered light intensity (colloidal aggregate formation, dynamic light scattering; 50 mM potassium phosphate buffer; 200 µM, pH 7.0, 1% DMSO; higher = more aggregation): 710000 counts/s
OC[C@H]1O[C@@H](c2ccc(Cl)c(Cc3ccc(O[C@H]4CCOC4)cc3)c2)[C@H](O)[C@@H](O)[C@@H]1O  change in Calcium (Japanese type 1 diabetes patients, blood; 10 mg, day 28; reference: baseline): -0.2 mg/dL
Nc1nc2c(nc([N+](=O)[O-])n2[C@@H]2O[C@H](CO)[C@@H](O)[C@H]2O)c(=O)[nH]1  nucleoside remaining fraction (depurination, RP-HPLC; citrate-phosphate buffer 0.5 mM; 1360 min, pH 2, 37 °C): 0.0496
CNCCOC12CC3(C)CC(C)(CC(Cn4ncc(-c5ccc(N6CCc7cccc(C(=O)Nc8nc9ccccc9s8)c7C6)nc5C(=O)O)c4C)(C3)C1)C2  PR interval change (beagle dog, male, anaesthetised; intravenous bolus, 0.03 mg/kg, 105 min; reference: baseline): -9 ms
C[C@@H](Nc1cc(F)cc(F)c1)c1cc(C(=O)N(C)C)cc2c(=O)cc(N3CCOCC3)oc12  related serious adverse events (refers to: Diarrhea; advanced solid tumour patients; oral, dose not given, dose expansion): 0%
Cc1cc(Nc2ncnc3ccc(NC4=NC(C)(C)CO4)cc23)ccc1Oc1ccn2ncnc2c1  half-life, mean (human, plasma; oral, 300 mg, day 1, single dose alone): 7.98 h
COc1ccc(NC(=O)N2CCCCN3[C@H](CN(C)S(C)(=O)=O)[C@H](c4ccc(C#Cc5ccccc5)cc4)[C@@H]3C2)cc1  Vss (CD-1 mouse; intravenous, dose not given): 4 L/kg
C=CC1(C)CC(OC(=O)CSc2nc3ccccc3s2)C2(C)C(C)CCC3(CCC(=O)C32)C(C)C1O (centres unmarked)  HC50 (haemolysis; sheep erythrocytes; 1 h, pH 7.5): > 128 µg/mL
CC#CC(=O)N1CC[C@@H](n2c(=O)n(-c3ccc(Oc4ccccc4)cc3)c3c(N)ncnc32)C1  Tmax, median (human, fasting, plasma; oral, 480 mg once daily, cycle 1 day 1): 2.93 h
NC(=O)c1cc(Oc2ccc(NC(=O)Nc3ccc(Cl)c(C(F)(F)F)c3)c(F)c2)cc[n+]1[O-]  metabolite to parent AUC ratio (wild-type mice, plasma; oral, molecular weight corrected, with: regorafenib single dose): 0.36%
CC(C(=O)NCC(=O)NCC(CNC(=O)CNC(=O)C(C)N1CCN(CC(=O)[O-])CCN(CC(=O)[O-])CCN(CC(=O)[O-])CC1)(CNC(=O)CNC(=O)C(C)N1CCN(CC(=O)[O-])CCN(CC(=O)[O-])CCN(CC(=O)[O-])CC1)CNC(=O)CNC(=O)C(C)N1CCN(CC(=O)[O-])CCN(CC(=O)[O-])CCN(CC(=O)[O-])CC1)N1CCN(CC(=O)[O-])CCN(CC(=O)[O-])CCN(CC(=O)[O-])CC1.[Gd+3].[Gd+3].[Gd+3].[Gd+3] (centres unmarked)  cumulative urinary excretion (ICP-MS; cynomolgus monkey; dose not given, 4 d, mass balance group; reference: dose): 100%
O=C(Nc1nc2cccc(-c3ccc(CN4CCS(=O)(=O)CC4)cc3)n2n1)C1CC1  treatment-emergent adverse events (refers to: nervous system disorders; human rheumatoid arthritis patients; oral, 150 mg once daily, 4 weeks, regardless of relatedness): 0%
Nc1ncnc2c1ncn2[C@H]1C[C@@H]2OP(=O)(O)OC[C@H]3O[C@@H](n4cnc5c(N)ncnc54)C[C@@H]3OP(=O)(O)OC[C@H]2O1  MCV (non-tumor-bearing mice, blood; intravenous, 1 mg/kg, toxicity study): 38.8 ± 0.41 fL
